Experimental data collected from several papers.
Lines come from different studies, so protocols differ. ± marks the error that the study gave.
uidA: Beta-glucuronidase (uidA, Escherichia coli, UniProt P05804)
Chain of UniProt P05804 (whole entry, looked up): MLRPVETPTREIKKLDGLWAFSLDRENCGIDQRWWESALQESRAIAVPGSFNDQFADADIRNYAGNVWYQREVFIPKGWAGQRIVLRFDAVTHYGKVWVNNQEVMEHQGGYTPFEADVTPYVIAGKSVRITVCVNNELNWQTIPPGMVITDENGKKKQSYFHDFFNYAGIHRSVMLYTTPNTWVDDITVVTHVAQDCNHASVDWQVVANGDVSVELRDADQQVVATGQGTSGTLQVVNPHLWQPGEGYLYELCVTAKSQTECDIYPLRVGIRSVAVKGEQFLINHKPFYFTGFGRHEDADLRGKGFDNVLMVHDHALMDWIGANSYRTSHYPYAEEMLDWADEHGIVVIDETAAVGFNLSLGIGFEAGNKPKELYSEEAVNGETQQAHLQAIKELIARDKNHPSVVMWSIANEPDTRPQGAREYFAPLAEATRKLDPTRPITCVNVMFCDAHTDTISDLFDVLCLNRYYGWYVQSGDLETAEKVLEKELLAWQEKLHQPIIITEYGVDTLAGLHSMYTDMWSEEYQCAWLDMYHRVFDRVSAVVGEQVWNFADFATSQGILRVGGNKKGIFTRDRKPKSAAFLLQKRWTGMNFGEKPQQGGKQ
NPY5R: Neuropeptide Y receptor type 5 (NPY5R, Homo sapiens, UniProt Q15761)
Chain of UniProt Q15761 (whole entry, looked up): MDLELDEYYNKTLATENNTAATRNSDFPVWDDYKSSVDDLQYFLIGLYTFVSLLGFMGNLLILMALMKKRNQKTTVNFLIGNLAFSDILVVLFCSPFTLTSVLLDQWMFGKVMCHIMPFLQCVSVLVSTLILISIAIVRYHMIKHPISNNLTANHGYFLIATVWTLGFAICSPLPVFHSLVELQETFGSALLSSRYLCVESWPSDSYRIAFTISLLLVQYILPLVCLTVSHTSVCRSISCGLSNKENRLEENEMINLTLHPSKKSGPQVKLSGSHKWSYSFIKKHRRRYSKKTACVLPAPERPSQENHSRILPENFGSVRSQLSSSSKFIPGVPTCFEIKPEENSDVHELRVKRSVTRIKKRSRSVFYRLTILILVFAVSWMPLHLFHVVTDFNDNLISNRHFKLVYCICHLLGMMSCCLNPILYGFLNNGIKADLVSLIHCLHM
Chain of UniProt O43148 (whole entry, looked up): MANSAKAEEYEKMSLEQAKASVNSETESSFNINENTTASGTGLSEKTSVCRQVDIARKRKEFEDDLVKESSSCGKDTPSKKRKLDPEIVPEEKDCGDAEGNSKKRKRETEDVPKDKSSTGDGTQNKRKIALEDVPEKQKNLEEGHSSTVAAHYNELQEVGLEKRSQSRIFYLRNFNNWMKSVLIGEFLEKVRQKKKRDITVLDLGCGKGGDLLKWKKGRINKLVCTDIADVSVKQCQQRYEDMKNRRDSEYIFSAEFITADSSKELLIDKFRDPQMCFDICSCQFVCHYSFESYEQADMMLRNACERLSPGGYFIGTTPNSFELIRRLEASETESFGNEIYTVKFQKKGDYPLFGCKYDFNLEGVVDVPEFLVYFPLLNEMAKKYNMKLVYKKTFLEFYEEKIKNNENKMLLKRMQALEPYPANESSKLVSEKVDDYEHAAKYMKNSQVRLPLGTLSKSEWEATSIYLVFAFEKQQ
Chain of UniProt P00441 (whole entry, looked up): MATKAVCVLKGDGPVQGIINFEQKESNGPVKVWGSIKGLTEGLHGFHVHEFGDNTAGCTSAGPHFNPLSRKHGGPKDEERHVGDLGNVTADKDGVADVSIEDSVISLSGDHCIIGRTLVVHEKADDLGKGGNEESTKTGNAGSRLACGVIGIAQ
Chain of UniProt P03303 (whole entry, looked up): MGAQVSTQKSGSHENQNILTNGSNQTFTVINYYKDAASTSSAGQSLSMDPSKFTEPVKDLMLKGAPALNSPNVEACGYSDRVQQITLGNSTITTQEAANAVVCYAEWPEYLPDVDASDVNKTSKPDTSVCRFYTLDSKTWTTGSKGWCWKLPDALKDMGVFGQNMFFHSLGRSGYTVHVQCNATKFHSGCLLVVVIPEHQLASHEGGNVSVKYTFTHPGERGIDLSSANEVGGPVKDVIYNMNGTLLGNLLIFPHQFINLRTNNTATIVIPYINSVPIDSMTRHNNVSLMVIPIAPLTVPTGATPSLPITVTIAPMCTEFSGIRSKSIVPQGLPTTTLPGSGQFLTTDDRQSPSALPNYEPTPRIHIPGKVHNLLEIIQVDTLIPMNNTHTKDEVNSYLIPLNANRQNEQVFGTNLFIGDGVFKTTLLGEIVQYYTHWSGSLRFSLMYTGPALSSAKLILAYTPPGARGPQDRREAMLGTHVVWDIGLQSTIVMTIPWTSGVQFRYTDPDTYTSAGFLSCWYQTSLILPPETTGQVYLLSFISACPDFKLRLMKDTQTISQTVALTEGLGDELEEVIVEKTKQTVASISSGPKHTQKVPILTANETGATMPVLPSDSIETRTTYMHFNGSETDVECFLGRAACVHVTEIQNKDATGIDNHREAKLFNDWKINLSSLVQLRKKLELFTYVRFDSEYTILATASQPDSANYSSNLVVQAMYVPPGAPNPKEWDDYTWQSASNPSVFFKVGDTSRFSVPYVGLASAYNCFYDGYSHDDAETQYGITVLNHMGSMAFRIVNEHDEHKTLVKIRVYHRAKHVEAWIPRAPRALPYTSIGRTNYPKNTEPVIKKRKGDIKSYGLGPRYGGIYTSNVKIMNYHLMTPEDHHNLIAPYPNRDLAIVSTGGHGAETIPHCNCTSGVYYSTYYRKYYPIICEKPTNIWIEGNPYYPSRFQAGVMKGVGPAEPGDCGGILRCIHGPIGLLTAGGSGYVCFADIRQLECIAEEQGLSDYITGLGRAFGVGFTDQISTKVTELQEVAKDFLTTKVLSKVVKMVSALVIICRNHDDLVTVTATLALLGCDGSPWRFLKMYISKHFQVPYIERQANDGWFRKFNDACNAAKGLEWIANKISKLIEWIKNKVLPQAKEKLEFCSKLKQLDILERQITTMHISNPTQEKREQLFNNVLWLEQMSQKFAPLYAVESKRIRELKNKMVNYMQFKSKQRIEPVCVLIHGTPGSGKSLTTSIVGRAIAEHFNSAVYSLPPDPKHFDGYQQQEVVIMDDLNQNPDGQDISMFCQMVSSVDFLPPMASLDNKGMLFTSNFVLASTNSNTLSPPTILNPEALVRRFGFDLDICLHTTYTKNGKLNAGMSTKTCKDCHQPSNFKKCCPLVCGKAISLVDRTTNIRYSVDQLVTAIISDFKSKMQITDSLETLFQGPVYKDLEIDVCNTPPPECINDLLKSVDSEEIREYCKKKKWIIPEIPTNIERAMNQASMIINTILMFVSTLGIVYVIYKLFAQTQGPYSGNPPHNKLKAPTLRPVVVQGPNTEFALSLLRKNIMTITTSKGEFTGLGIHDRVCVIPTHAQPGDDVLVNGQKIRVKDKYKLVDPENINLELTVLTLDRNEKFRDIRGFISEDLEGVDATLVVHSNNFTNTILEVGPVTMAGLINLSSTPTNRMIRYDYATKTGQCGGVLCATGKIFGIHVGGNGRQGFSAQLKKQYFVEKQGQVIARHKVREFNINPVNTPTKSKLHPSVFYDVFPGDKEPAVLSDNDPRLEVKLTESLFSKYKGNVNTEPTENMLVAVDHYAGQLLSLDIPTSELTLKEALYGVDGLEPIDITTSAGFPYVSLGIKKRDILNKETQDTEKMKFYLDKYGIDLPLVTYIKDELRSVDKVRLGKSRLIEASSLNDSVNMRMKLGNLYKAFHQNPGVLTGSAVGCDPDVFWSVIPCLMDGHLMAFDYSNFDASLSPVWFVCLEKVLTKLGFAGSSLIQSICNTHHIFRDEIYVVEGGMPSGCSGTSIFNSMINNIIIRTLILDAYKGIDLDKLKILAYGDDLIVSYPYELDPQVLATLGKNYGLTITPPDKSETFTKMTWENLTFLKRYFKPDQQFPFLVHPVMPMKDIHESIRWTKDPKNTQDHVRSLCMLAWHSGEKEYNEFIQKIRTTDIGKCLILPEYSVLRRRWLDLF
Chain of UniProt P22735 (whole entry, looked up): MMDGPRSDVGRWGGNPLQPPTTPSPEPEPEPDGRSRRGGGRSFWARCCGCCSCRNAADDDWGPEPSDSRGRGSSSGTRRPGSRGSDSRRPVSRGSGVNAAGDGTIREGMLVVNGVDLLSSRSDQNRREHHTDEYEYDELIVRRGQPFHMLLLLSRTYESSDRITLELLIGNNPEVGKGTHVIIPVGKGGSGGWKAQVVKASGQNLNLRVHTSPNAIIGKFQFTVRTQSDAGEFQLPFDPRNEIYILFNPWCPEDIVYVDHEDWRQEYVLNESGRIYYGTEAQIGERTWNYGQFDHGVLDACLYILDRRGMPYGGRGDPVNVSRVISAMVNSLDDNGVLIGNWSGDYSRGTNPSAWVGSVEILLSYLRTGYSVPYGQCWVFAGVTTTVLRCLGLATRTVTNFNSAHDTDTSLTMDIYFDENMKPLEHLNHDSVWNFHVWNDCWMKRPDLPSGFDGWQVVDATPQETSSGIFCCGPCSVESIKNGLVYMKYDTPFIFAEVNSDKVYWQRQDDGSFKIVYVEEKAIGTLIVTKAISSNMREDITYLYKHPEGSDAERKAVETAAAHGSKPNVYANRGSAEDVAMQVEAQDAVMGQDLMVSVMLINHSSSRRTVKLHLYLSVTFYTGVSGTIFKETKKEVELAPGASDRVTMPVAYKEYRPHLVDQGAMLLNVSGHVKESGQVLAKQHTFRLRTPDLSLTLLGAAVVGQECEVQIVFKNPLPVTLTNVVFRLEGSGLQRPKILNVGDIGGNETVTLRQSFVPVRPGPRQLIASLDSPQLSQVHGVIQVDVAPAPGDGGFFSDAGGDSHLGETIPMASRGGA
Chain of UniProt P26918 (whole entry, looked up): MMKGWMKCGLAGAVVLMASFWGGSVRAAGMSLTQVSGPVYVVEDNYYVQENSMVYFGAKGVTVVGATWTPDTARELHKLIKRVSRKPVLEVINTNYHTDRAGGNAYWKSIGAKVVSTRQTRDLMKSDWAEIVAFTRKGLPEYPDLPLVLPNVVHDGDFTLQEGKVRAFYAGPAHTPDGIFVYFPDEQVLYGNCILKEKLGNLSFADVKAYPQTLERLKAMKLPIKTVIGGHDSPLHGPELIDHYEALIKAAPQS
Chain of UniProt P62942 (whole entry, looked up): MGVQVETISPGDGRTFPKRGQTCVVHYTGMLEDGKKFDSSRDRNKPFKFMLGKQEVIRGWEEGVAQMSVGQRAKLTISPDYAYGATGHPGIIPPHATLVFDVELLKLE

O=C(O[C@@H]1Cc2c(O)cc(O)cc2O[C@H]1c1ccc(O)c(O)c1)c1cc(O)c(O)c(O)c1 has an IC50 of 1.87 ± 0.66 µM (mRNA cap guanine-N(7) methyltransferase, with RAM (RNMT, Homo sapiens, UniProt O43148); N7-methyltransferase activity, inhibitor, Py-FLINT; RNMT-RAM complex, together with: SAM 20 µM).
With CC(=O)N[C@H]1CCCCn2cc3ccccc3c2SC[C@@H](C(N)=O)NC(=O)[C@H](Cc2ccc(O)cc2)NC(=O)[C@H](CCCNC(=N)N)NC(=O)[C@H](Cc2c[nH]c3ccccc23)NC(=O)[C@H](Cc2c[nH]cn2)NC(=O)[C@H](CC(C)C)NC(=O)[C@H](Cc2ccccc2)NC(=O)[C@H]([C@@H](C)O)NC1=O the IC50 was 10.4 µM (Tyrosine-protein phosphatase non-receptor type 1 (PTPN1, Homo sapiens, UniProt P18031); enzyme activity, inhibitor, absorbance).
For CC(C)C[C@H](NC(=O)OCc1ccccc1)C(=O)N[C@@H](C[C@@H]1CCNC1=O)C(O)S(=O)(=O)O (some centres unmarked), the IC50 was 0.08 µM (Genome polyprotein, 3C protease (Human enterovirus 71, UniProt B9VUU3); protease activity, inhibitor, FRET; Enterovirus A71; DTT 4 mM).
For [N-]=[N+]=NCCCCCCO[C@H]1O[C@H](CO[C@H]2O[C@H](CO)[C@@H](O)[C@H](O)[C@@H]2O)[C@@H](O)[C@H](O[C@H]2O[C@H](CO)[C@@H](O)[C@H](O)[C@@H]2O)[C@@H]1O, the IC50 was 2 µM (Concanavalin-A (Canavalia ensiformis, UniProt P02866); cell-free assay).
For CN(C)c1nc2sc3c(N4CCNCC4)nnnc3c2c2c1CCCC2, the IC50 was 0.07 µM (uidA; enzyme activity, inhibitor).
With C=C1C(=O)N[C@@H](C)C(=O)N(C)[C@@H](C)C(=O)N[C@@H]([C@H](OC(=O)[C@@H](NC(C)=O)[C@H](O)C(C)C)C(C)C)C(=O)N(C)[C@@H]([C@@H](C)OC)C(=O)O[C@H](C)[C@H](NC(C)=O)C(=O)O[C@H](Cc2ccccc2)C(=O)N1C the IC50 was 0.0933 µM (Guanine nucleotide binding protein q polypeptide (Cricetulus griseus, UniProt Q3HR10); inositol phosphate, antagonist, TR-FRET).
CC[C@H](C)[C@@H]1NC(=O)[C@H](Cc2ccccc2)NC(=O)[C@H](CC(=O)O)NC(=O)[C@@H](NC(C)=O)CSC(=O)[C@H](CCSC)NC1=O has an IC50 of greater than 1 µM (Receptor-histidine kinase AgrC (agrC, Staphylococcus aureus, UniProt O07911)).
CC1C(=NNC(=O)c2ccncc2)C(C)C(c2ccc(Cl)cc2)OC1c1ccc(Cl)cc1 (centres unmarked) gave an IC50 of 4.76 µM (DNA gyrase subunit B (gyrB, Escherichia coli, UniProt P0AES6); ATPase activity, inhibitor).
CSCC[C@H](NC(=O)C(C)(C)NC(=O)CNC(=O)[C@H](Cc1ccc(O)cc1)NC(=O)[C@H](Cc1c[nH]c2ccccc12)NC(=O)[C@H](Cc1ccccc1)NC(=O)[C@H](CO)NC(=O)CNC(=O)CNC(=O)[C@H](CC(=O)O)NC(=O)[C@@H](N)CCC(=O)O)C(=O)N[C@@H](CCCCN)C(=O)N[C@@H](C)C(=O)N[C@@H](CC(C)C)C(=O)N[C@@H](Cc1ccc(O)cc1)C(=O)NCC(N)=O has an IC50 of 0.017 µM (Calcium and integrin-binding protein 1 (CIB1, Homo sapiens, UniProt Q99828)).
NC(=S)N/N=C/c1ccccc1O has an IC50 of 1.36 µM (Superoxide dismutase [Cu-Zn] (SOD1, Homo sapiens, UniProt P00441); enzyme activity, inhibitor; HeLa; 24 h).
CSCC[C@H](NC(=O)[C@H](Cc1ccccc1)NC(=O)[C@H](Cc1c[nH]cn1)NC(=O)CNC(=O)[C@@H](NC(=O)[C@H](C)NC(=O)[C@H](Cc1c[nH]c2ccccc12)NC(=O)[C@H](CCC(N)=O)NC(=O)[C@@H]1CCCN1C(=O)CNC(=O)CNC(=O)CNC(=O)[C@@H]1CCC(=O)N1)C(C)C)C(N)=O gave an IC50 of 0.00068 µM (Gastrin-releasing peptide receptor (GRPR, Homo sapiens, UniProt P30550); ligand displacement in cells, radioligand).
Cc1cccc(-c2nc(Nc3ccncn3)c3sccc3n2)n1 gave an IC50 of 17 µM (Cytochrome P450 3A4 (CYP3A4, Homo sapiens, UniProt P08684); enzyme activity, inhibitor; together with: VG substrate).
CC/C(=C\CC[C@H](C)C[C@@H](C)CC[C@H](O)[C@H](C)C(=O)CC(O)[C@H](C)[C@@H](C)OC(=O)C[C@@H](O)C1=C(C)C(=O)OC1=O)C(O)CC(=O)O (some centres unmarked) has an IC50 of 0.128 µM (Serine/threonine-protein phosphatase PP1-alpha catalytic subunit (PPP1CA, Oryctolagus cuniculus, UniProt P62139); phosphatase activity, inhibitor; preincubation 20 min, together with: DiFMUP).
With COC1CC(=O)N(C)C=CCCCC(=O)N(C)C(C(C)C)C(=O)N(C)C(CC(C)C)C(=O)OC(C(C)C)CC(C)C1 (centres unmarked) the IC50 was 2.1 µM (Substance-K receptor (TACR2, Homo sapiens, UniProt P21452); ligand displacement, radioligand).
The IC50 of COC(=O)CC[C@@H]1NC(=O)[C@H](Cc2c[nH]c3ccccc23)NC(=O)[C@@H]2CC(=O)O[C@H](C)[C@H](NC(=O)[C@H](CCC(=O)O)NC(=O)[C@H](CO)NC(=O)[C@H](CCCNC(=N)N)NC(C)=O)C(=O)N[C@@H](CC(C)C)C(=O)N[C@@H](CCCCNC(=O)CC[C@@H](C(=O)N[C@@H](Cc3ccccc3)C(=O)O)NC1=O)C(=O)N[C@@H](Cc1ccc(O)cc1)C(=O)N1CCC[C@H]1C(=O)N[C@@H](CO)C(=O)N2 is reported as 1.5 µM (Chymotrypsinogen A (Bos taurus, UniProt P00766); enzyme activity, inhibitor, fluorescence).
For COc1ccc(N=Nc2cccc(NC(=O)CCCCCCC(=O)NO)c2)cc1, the IC50 was 0.098 ± 0.014 µM (Histone deacetylase 2 (HDAC2, Homo sapiens, UniProt Q92769); enzyme activity, inhibitor; cis isomer, irradiated).
CC(=O)N[C@@H](CC(C)C)C(=O)N[C@@H](CCC(=O)O)C(=O)N[C@@H](CO)C(=O)N[C@@H](CC(=O)O)C(=O)CCl gave an IC50 of 54 µM (Caspase-3 (CASP3, Homo sapiens, UniProt P42574); enzyme activity, inhibitor, fluorescence).
For COc1ccc(CC[C@H]2OC(=O)[C@@H]3CCCCN3C(=O)C(=O)C(C)(C)COC(=O)/C=C\CCN(C)C(=O)[C@H](CC(C)C)N(C)C(=O)[C@H]3CCCN3C(=O)[C@H](Cc3ccccc3)N(C)C(=O)[C@H](c3ccccc3)NC(=O)CCC(=O)Nc3cccc2c3)cc1OC, the IC50 was 0.0145 µM (FKBP1A/SLC29A1 (Homo sapiens, UniProt P62942+Q99808); thymidine uptake, inhibitor; PK-15 expressing hENT1; 30 min, together with: [3H]-thymidine).
Cc1ccc2c(n1)c(-c1cccc(S(C)(=O)=O)c1)c(C)n2C/C(F)=C/CN has an IC50 of 0.118 µM (Lysyl oxidase homolog 4 (LOXL4, Homo sapiens, UniProt Q96JB6); enzyme activity, inhibitor, fluorescence; with preincubation).
O=C(NCCCCCCn1ccc2ccccc21)Oc1ccccc1 gave an IC50 of 0.085 µM (Fatty-acid amide hydrolase 1 (Faah, Rattus norvegicus, UniProt P97612); rat brain homogenate; 60 min, 37 °C).
For C=Cc1cc(OC)c2c(c1)c(=O)oc1c2cc(OC)c2c(O)ccc([C@@H]3O[C@H](C)[C@H](O)[C@@](C)(O)[C@H]3O)c21, the IC50 was 4.03 ± 0.92 µM (2,3,4,5-tetrahydropyridine-2,6-dicarboxylate N-acetyltransferase (dapH, Staphylococcus aureus, UniProt A6QGU8); enzyme activity, inhibitor, DTNB colorimetric; together with: acetyl-CoA 200 µM).
CN(C)CP(C)(=O)O gave an IC50 of 3.8 ± 0.4 µM (Urease subunit alpha (Sporosarcina pasteurii, UniProt P41020); enzyme activity, inhibitor, indophenol colorimetric; 20 min, pH 7.0, 37 °C, together with: 50 mM urea).
CC(C)[C@H](NC(=O)c1ccc(CCc2nc3c(c(=O)[nH]2)CCC3)cc1)C(=O)NC1COC1 has an IC50 of greater than 5 µM (Matrix metalloproteinase-9 (MMP9, Homo sapiens, UniProt P14780); enzyme activity, inhibitor).
CCCCCCCCCCCCCCCC[N+](C)(C)CCN(Cc1ccc(OC)cc1)c1ncccn1 has an IC50 of 1 µM (mRNA cap guanine-N(7) methyltransferase (RNMT, Homo sapiens, UniProt O43148); enzyme activity, inhibitor).
With Nc1ncnc2c1ncn2[C@@H]1O[C@H](CSCCNC(=O)NCCc2ccccc2)[C@@H](O)[C@H]1O the IC50 was greater than 50 µM (Histone-lysine N-methyltransferase EHMT2 (EHMT2, Homo sapiens, UniProt Q96KQ7); enzyme activity, inhibitor, radiometric).
With N[C@H](CC[As](=O)(O)O)C(=O)O the IC50 was 250 µM (Glutaminase kidney isoform, mitochondrial (GLS, Homo sapiens, UniProt O94925); enzyme activity, inhibitor).
The IC50 of Cn1nnc(-c2cccc(NC(=O)CCS)c2)n1 is reported as 0.079 µM (Metallo-beta-lactamase VIM-2 (VIM-2, Escherichia coli, UniProt Q5U7L7); enzyme activity, inhibitor, fluorescence; with preincubation).
With CC1CCc2c(sc3ncnc(Sc4nnc(CN5CCCC5)o4)c23)C1 (centres unmarked) the IC50 was greater than 100 µM (Genome polyprotein, 3C protease (rhinovirus B14, UniProt P03303); 3C protease activity, SAMDI-MS; human rhinovirus).
The IC50 of O=C(NCCN1CCC2(CC1)C(=O)NCN2C(=O)C1CCC1)c1ccc2ccccc2c1 is reported as 4 µM (Phospholipase D1 (Homo sapiens, UniProt Q13393); enzyme activity, inhibitor).
The IC50 of CC(C)C[C@@H]1NC(=O)[C@H](CCCNC(=N)N)NC(=O)[C@H](CCCCN)NC(=O)[C@H](CC(=O)O)NC(=O)[C@H](CCCCN)NC(=O)[C@@H](CO)NC1=O is reported as greater than 10 µM (Disintegrin and metalloproteinase domain-containing protein 17 (ADAM17, Homo sapiens, UniProt P78536); enzyme activity, inhibitor, fluorescence).
With CCn1c2ccccc2c2cc(NC(=O)CCc3nc(-c4ccccc4F)no3)ccc21 the IC50 was 0.19 µM (NPY5R; ligand displacement, radioligand).
For CC[C@H](C)[C@H](NC(=O)[C@H](Cc1ccc(O)cc1)NC(=O)[C@H](CCCNC(=N)N)NC(=O)[C@H](CCCNC(=N)N)NC(=O)[C@H](CC(C)C)NC(=O)[C@H](CC(=O)O)NC(=O)[C@H](C)NC(=O)[C@H](C)NC(=O)[C@H](Cc1ccc(O)cc1)NC(=O)[C@H](CCC(=O)O)NC(=O)[C@H](CC(C)C)NC(=O)[C@@H]1CCCN1C(=O)[C@H](C)N)C(=O)N[C@@H](CC(N)=O)C(=O)N[C@@H](CCSC)C(=O)N[C@@H](CC(C)C)C(=O)N[C@H](C(=O)N[C@@H](CCCNC(=N)N)C(=O)N1CCC[C@H]1C(=O)N[C@@H](CCCNC(=N)N)C(=O)N[C@@H](Cc1ccc(O)cc1)C(N)=O)[C@@H](C)O, the IC50 was greater than 5 µM (NPY5R; radioligand binding; BHK membranes, transfected).
For COC(=O)C=CCCC(NC(=O)c1ccncc1C(=O)O)C(=O)NC(C(=O)N1CC(=O)CC1C(=O)NC(C(=O)NC(C(N)=O)C1CCCCC1)C1CCCCC1)C(C)(C)C (centres unmarked), the IC50 was 11 µM (Protein-glutamine gamma-glutamyltransferase K (Homo sapiens, UniProt P22735); enzyme activity, inhibitor).
The IC50 of CC[C@H](C)[C@H](NC(=O)CNC(=O)CNCCOC)C(=O)N[C@@H](CO)C(=O)N[C@@H](CCC(N)=O)C(=O)N[C@H](C(=O)N[C@@H](CC(N)=O)C(=O)N[C@@H](CCC(=O)O)C(=O)N[C@@H](CCCCN)C(=O)N[C@H](C(=O)N[C@@H](CC(N)=O)C(=O)N[C@@H](CCC(N)=O)C(=O)N[C@@H](CO)C(=O)N[C@@H](CC(C)C)C(=O)N[C@@H](C)C(=O)N[C@@H](Cc1ccccc1)C(=O)N[C@H](C(=O)N[C@@H](CCCNC(=N)N)C(=O)N[C@@H](CCCCN)C(=O)N[C@@H](CO)C(=O)N[C@@H](CC(=O)O)C(=O)N[C@@H](CCC(=O)O)C(=O)O)[C@@H](C)CC)[C@@H](C)CC)C(C)C is reported as 81 ± 2 µM (hRSV fusion protein 5-helix bundle; binding, fluorescence polarization; together with: Fl-C35 tracer 5 nM).
CC(C)C[C@H](NC(=O)[C@H](CCCNC(=N)N)NC(=O)[C@@H](N)CS)C(=O)N[C@@H](CC(N)=O)C(=O)O gave an IC50 of 234 µM (PPO3 (Agaricus bisporus, UniProt C7FF04); enzyme activity, inhibitor).
CN[C@H](CC(C)C)C(=O)N[C@H]1C(=O)N[C@@H](CC(N)=O)C(=O)N[C@H]2C(=O)N[C@H]3C(=O)N[C@H](C(=O)N[C@H](C(=O)O)c4cc(O)cc(O)c4-c4cc3ccc4O)[C@H](O)c3ccc(c(Cl)c3)Oc3cc2cc(c3O[C@@H]2O[C@H](CO)[C@@H](O)[C@H](O)[C@H]2O[C@H]2C[C@](C)(NCc3ccc(C(=O)OCCCCCCN(Cc4ccccn4)Cc4ccccn4)cc3)[C@H](O)[C@H](C)O2)Oc2ccc(cc2Cl)[C@H]1O has an IC50 of 2.1 µM (Metallo-beta-lactamase type 2 (Aeromonas hydrophila, UniProt P26918); enzyme activity, inhibitor, fluorescence).
C1CCc2c(c(N3CCNCC3)nc3sc4c(N5CCNCC5)nnnc4c23)C1 has an IC50 of 0.1 µM (uidA; enzyme activity, inhibitor).
For CC(C)C[C@H](c1ccc(Cl)cc1)[C@H]1CCCCN1, the IC50 was 0.0098 ± 0.0023 µM (Sodium-dependent dopamine transporter (SLC6A3, Homo sapiens, UniProt Q01959); inhibitor).
